Results collected from several papers.
Lines come from different studies, so protocols differ. ± marks the error that the study gave.

CC(=O)O[C@H]1C(=O)[C@@]2(C)[C@H]([C@H](OC(=O)c3ccccc3)[C@]3(O)C[C@H](OC(=O)[C@H](OC(=O)OCc4cc(P(=O)(O)O)ccc4OP(=O)(O)O)[C@@H](NC(=O)c4ccccc4)c4ccccc4)C(C)=C1C3(C)C)[C@]1(OC(C)=O)CO[C@@H]1C[C@@H]2O — solubility (HPLC, saturated solution; simulated gastric fluid; 30 s, pH 1.2): 660 µg/mL
CCC(CC)[C@@H]1COC[C@@H](c2ccc(C#N)cc2)N1 — solubility (shake-flask, LC-HRMS; aqueous buffer; 16 h, pH 6.8): > 750 µM
CC(C)(C)c1ccc(CN2CCN(C(c3ccccc3)c3ccc(Cl)cc3)CC2)cc1 (stereo not shown) — solubility (PBS; pH 7.4, 25 °C, 2% DMSO): 3 µM
CCCC[C@H]1CN(c2cccc(OC(F)(F)F)c2)C(=O)CN1Cc1cncn1Cc1ccc(Br)cc1 — solubility (aqueous solution; maximal solubility): ~200 µM
CC(C)(C)c1ccc([C@H]2COC[C@H](C3CCCCC3)N2)cc1 — solubility (shake-flask, LC-HRMS; aqueous buffer; 16 h, pH 6.8): < 4 µM
C[C@H](Nc1ccnc(Nc2cccc(-c3cccnc3)c2)n1)C(=O)O — solubility (citrate phosphate-buffered saline; 18 h, pH 7.4, 1% DMSO): 61.9 ± 2.2 µM
COc1cc(OC)c2c(=O)c(OC)c(-c3ccccc3)oc2c1 — solubility (HPLC; ethanol:butylene glycol 0:100): 2189 ± 14 ppm
COc1cccc([C@@H]2COC[C@]3(CCOC3)N2)c1 — solubility (shake-flask, LC-HRMS; aqueous buffer; 16 h, pH 6.8): > 750 µM
CN1CCN(C(=O)CN(C)S(=O)(=O)c2ccc3ccccc3c2)CC1 — solubility (aqueous buffer; pH 7.4): 971 µg/mL
Cc1cc(Nc2ccnc3ccc(-c4ccc(S(=O)(=O)N5CCOCC5)cc4)cc23)sn1 — solubility (thermodynamic; aqueous medium): < 1 µM
COC(=O)c1ccc([C@H]2COC[C@@H](C3CC3)N2)cc1 — solubility (shake-flask, LC-HRMS; aqueous buffer; 16 h, pH 6.8): > 750 µM
COc1ccccc1NC(=O)CSc1nncn1C — solubility (aqueous buffer; pH 7.4): > 3380 µg/mL
CCc1n(Cc2ccc3ccccc3n2)cc[n+]1Cc1ccc2ccccc2c1.[Br-] — solubility (aqueous 2-hydroxypropyl-β-cyclodextrin): > 10000 µM
CCc1ccccc1NC(=O)CSc1nnc(-c2cccc(OC)c2)n1C — solubility (aqueous buffer; pH 7.4): 33.3 µg/mL
Cn1cncc1[C@@](N)(c1ccc(Cl)cc1)c1ccc2c(c1)c(-c1cccc(Cl)c1)cc(=O)n2C — solubility (0.01 N HCl; final pH 2.79): 3390 ± 56.6 µg/mL
Cn1c(COc2cccc3cccnc23)nnc1SCC(N)=O — solubility (aqueous buffer; pH 7.4): 161 µg/mL
CC(C)(C)c1ccc([C@@H]2COC[C@@H](c3ccc(Cl)cc3)N2)cc1 — solubility (shake-flask, LC-HRMS; aqueous buffer; 16 h, pH 6.8): < 4 µM
CN(C)CCNS(=O)(=O)c1ccc(N/C=C2\C(=O)Nc3ccccc32)cc1 — solubility (aqueous buffer; pH 7.4): 6.46 µg/mL
Nc1nc2c(ncn2COCCO)c(=O)[nH]1 — solubility (shake-flask; methanol-ethanol mixture; 298.2 K, mass fraction 0.1): 695 µg/mL
Clc1cc(Cl)cc([C@H]2COC[C@@H](c3ccc(-n4cncn4)cc3)N2)c1 — solubility (shake-flask, LC-HRMS; aqueous buffer; 16 h, pH 6.8): < 4 µM
CC1(CNC(=O)c2ccc(C#CC#Cc3ccccc3)cc2)NC(=O)NC1=O (stereo not shown) — solubility (aqueous buffer; pH 7.4): < 2.65 µg/mL
CCOC(=O)N1C[C@@H](c2ccc(C(F)(F)F)cc2)N[C@@H](C(CC)CC)C1 — solubility (shake-flask, LC-HRMS; aqueous buffer; 16 h, pH 6.8): < 4 µM
CC(C)Nc1ccnc(Nc2cccc(C(C)(C)C)c2)n1 — solubility (citrate phosphate-buffered saline; 18 h, pH 7.4, 1% DMSO): 10.1 ± 0.4 µM
Cc1c([C@@H]2COC[C@H](c3cc(Cl)cc(Cl)c3)N2)cnn1-c1ccccc1 — solubility (shake-flask, LC-HRMS; aqueous buffer; 16 h, pH 6.8): < 4 µM
COC1=CC(c2ccc[nH]2)=N/C1=C\c1cc(Cc2ccc(OC(F)(F)F)cc2)c(C)[nH]1.Cl — solubility (potassium phosphate buffer; 1.5 h, pH 7.4, room temperature): < 3.13 µM

Some of these lines once more:
Nc1nc2c(ncn2COCCO)c(=O)[nH]1 — solubility (shake-flask; methanol-ethanol mixture; 298.2 K, mass fraction 0.1): 695 µg/mL
CCCC[C@H]1CN(c2cccc(OC(F)(F)F)c2)C(=O)CN1Cc1cncn1Cc1ccc(Br)cc1 — solubility (aqueous solution; maximal solubility): ~200 µM
